Measured values of several laboratories.
Several values in a cell are separate wells, animals, samples, runs or records. Numbers after ± are the reported error.
Cell line: K562

Compound	assay	setting	quantity	value
CCCCn1cc(C(=O)O)c(=O)c2cc(F)c(Nc3ccccc3OC)c([N+](=O)[O-])c21	cell growth or viability, SRB	–	IC50	35.6 µM and < 50 µM
CC(=O)O[C@H]1CC[C@]2(C)C3=C(CC[C@H]2C1(C)C)[C@@]1(C)CC[C@@H]([C@H](C)CCC=C(C)C)[C@]1(C)CC3	cell growth or viability, SRB	50 µM	inhibition	39.8%
CC(C)=CCc1cc(-c2coc3cc(O)c(CC=C(C)C)c(O)c3c2=O)ccc1O	cell growth or viability, MTT	100 µg/mL	viability	8.19%
CCCCn1cc(C(=O)O)c(=O)c2cc(F)c3c(nnn3-c3ccccc3OC)c21	cell growth or viability, SRB	–	IC50	277 µM
Cc1[nH][n+]([Pd-2]([Br])([Br])[n+]2[nH]c(C)c(CSC3CCCCC3)c2C)c(C)c1CSC1CCCCC1	cytotoxicity, 7-AAD flow cytometry	24 h	IC50	0.23 ± 0.04 µM
CC(C)=CCc1c2c(c(O)c3c(=O)c(-c4ccc(O)cc4)coc13)CC(C(C)(C)O)O2 (stereo not drawn)	cell growth or viability, MTT	100 µg/mL	viability	10.6%
Cc1[nH][n+]([Pd-2]([Cl])([Cl])[n+]2[nH]c(C)c(CSCc3ccccc3)c2C)c(C)c1CSCc1ccccc1	cytotoxicity, 7-AAD flow cytometry	24 h	IC50	0.52 ± 0.04 µM
C[C@H](CCC1OC1(C)C)[C@@H]1CC[C@]2(C)C3=C(CC[C@@]12C)[C@@]1(C)CC[C@H](O)C(C)(C)[C@@H]1CC3 (stereo partly drawn)	cell growth or viability, SRB	50 µM	inhibition	34.1%
COc1ccc(-c2coc3c(CC=C(C)C)c(O)c(CC=C(C)C)c(O)c3c2=O)cc1O	cell growth or viability, MTT	6.25 µg/mL	viability	88%
CC(C)=CCC[C@@H](C)[C@@H]1CC[C@]2(C)C3=C(CC[C@@]12C)[C@@]1(C)CC[C@H](OC(=O)c2ccccc2)C(C)(C)[C@@H]1CC3	cell growth or viability, SRB	50 µM	inhibition	33.1%
COc1cc2c(cc1O)[C@]1(O)C(=O)c3c(O)cc4c(c3O[C@@H]1CO2)C=CC(C)(C)O4	cell growth or viability, MTT	25 µg/mL	viability	7.64%
CCCCn1cc(C(=O)O)c(=O)c2cc(F)c(Nc3cc(OC)c(OC)c(OC)c3)c([N+](=O)[O-])c21	cell growth or viability, SRB	–	IC50	54.9 µM

A few entries again:
Compound	assay	setting	quantity	value
Cc1[nH][n+]([Pd-2]([Br])([Br])[n+]2[nH]c(C)c(CSC3CCCCC3)c2C)c(C)c1CSC1CCCCC1	cytotoxicity, 7-AAD flow cytometry	24 h	IC50	0.23 ± 0.04 µM
CC(C)=CCc1c2c(c(O)c3c(=O)c(-c4ccc(O)cc4)coc13)CC(C(C)(C)O)O2 (stereo not drawn)	cell growth or viability, MTT	100 µg/mL	viability	10.6%
